Measurements from different studies.
Every numbered part comes from another study and shows a few of its results, in no order.

Series 1
Target: Histone acetyltransferase KAT6A, both winged helices, GST fusion (KAT6A, Homo sapiens, UniProt Q92794, residues 1-181)
Technique: protein binding microarray
Molecule type: double-stranded DNA, one strand shown
Sample: in vitro
Tested at: not given
Notes: 8-mer, flanks averaged, mean of 2 arrays, mostly near background
Baseline: not given
Reading: higher = stronger binding
Quantity: E-score
Residues (chain): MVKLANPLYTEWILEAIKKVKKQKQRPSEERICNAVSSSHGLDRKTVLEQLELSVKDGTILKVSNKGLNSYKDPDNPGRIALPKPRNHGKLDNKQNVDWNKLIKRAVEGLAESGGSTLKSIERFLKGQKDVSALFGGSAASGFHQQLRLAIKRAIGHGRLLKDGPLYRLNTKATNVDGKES
ACATGTTA: -0.0956
TATCAAAA: -0.049
AGATTTGG: -0.214
ACCCGGCG: 0.283
CCACCACG: -0.0239
CCGTCCCC: 0.128
AAGGCATA: -0.249
CGCTAAAA: 0.24
ACATTTGG: -0.0517
ATGCGCCG: 0.338
GGATGTCA: 0.00904
ATACTTCG: -0.0561
CCTCTTCC: -0.116
CATCGTAG: -0.0305
ACGCCACC: -0.0798
CAAGTGGC: -0.0489
CCCCCTCG: -0.0955
ATGGGGAC: -0.109
ACGTGCGC: 0.283
ATCCCAGG: -0.221

Series 2
Target: Interferon regulatory factor 7, full length, phosphomimetic (IRF7, Homo sapiens, UniProt Q92985, residues 1-503, S101K/S471D/S472D/S475D/S476D/S477D/S483D/S484D/S487D)
Chain of UniProt Q92985 (whole entry, unmodified, looked up): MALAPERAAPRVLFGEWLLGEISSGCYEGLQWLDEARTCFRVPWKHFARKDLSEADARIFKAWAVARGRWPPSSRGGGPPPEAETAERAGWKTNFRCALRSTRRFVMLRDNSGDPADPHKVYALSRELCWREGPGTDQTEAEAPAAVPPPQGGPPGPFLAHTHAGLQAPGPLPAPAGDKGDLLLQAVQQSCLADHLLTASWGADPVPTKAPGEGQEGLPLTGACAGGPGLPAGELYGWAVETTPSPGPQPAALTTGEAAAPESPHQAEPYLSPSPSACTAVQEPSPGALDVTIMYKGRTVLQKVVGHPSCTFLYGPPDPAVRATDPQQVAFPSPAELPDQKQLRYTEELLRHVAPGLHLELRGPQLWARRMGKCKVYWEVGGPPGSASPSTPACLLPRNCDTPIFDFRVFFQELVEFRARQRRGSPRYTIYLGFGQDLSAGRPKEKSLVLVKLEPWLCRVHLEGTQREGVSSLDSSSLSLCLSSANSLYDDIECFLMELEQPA
Technique: protein-binding microarray
Molecule type: double-stranded DNA, one strand shown
Sample: in vitro
Tested at: 250 nM
Notes: 60-bp whole probe
With: salmon DNA 0.4 mg/ml
Baseline: random background probes
Reading: higher = stronger binding
Quantity: log fluorescence
Constant ends, left off below: GCCTAGCAC … GTCTTGATTCGCTTGACGCTGCTG
GACGGTATCCTTGTCCTGACGTGCTAG: -0.16 z-score
TCAATATCCATTATAGAACTGTGCTAG: 0.608 z-score
GACGGACTGCTGCTCCTGACGTGCTAG: -0.878 z-score
ACCACTTTTATTTTCAGTATGTGCTAG: 0.841 z-score
TTAGATTTCAGTTCCGAGTAGTGCTAG: 1.14 z-score
TTAGATTTCGGTTATCGATTAGTGCTA: 2.74 z-score
TTAGATATCGGGTATCAATTAGTGCTA: 0.174 z-score
TTAGATATCAGACTGCATTAGTGCTAG: 0.106 z-score
TACGATTTCAGTATCGAGACGTGCTAG: 0.473 z-score
GACGGTATCGAGTTTCGGGACGTGCTA: 3.28 z-score
GACGGACTGAGGTATCGGGACGTGCTA: -0.4 z-score
GAAAATTTCTTCCTCCCCCTGTGCTAG: 0.35 z-score
TCCTTTTAATTTTTAACGAGGTGCTAG: 1.58 z-score
GACGGTTTCCTACTGCTAACGTGCTAG: 1.53 z-score
GACGAACTGGGGACTGAAGACGTGCTA: -0.597 z-score
TTAGGACTGGGTCTCGGTTTGTGCTAG: 4.11 z-score
TGAGGTATCGACTTTCGGTTAGTGCTA: 2.48 z-score

Series 3
Target: RNA binding protein fox-1 homolog 2, RRM domain, GST-SBP tag (RBFOX2, Homo sapiens, UniProt O43251-10, residues 100-194)
Technique: RNA Bind-n-Seq
Molecule type: RNA
Sample: in vitro
Tested at: 365 nM
Notes: natural RNA segment, single round, ends assumed
Baseline: no-protein control
Reading: higher = stronger binding
Quantity: RBNS enrichment (R)
Constant ends, left off below: GGGAGUUCUACAGUCCGACGAUC … UGGAAUUCUCGGGUGCCAA
Construct (chain): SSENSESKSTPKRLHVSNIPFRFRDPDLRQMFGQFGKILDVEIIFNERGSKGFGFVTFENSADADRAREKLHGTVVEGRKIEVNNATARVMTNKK
ACUGGCAGAGCACAGCCCACGGGGAUCACAGCGUUUCAGGAACGUUGCCACACCAAUCAGAGAGCCUAGAACAUCCCUGGGCAAGUGGAUGGCCCAGCAGGCAGGCACUG: 0.675
UGUCAACUGUGUGGCUUGGAAUCCCAAGGAGCCAGGGCUCCUGGCCUCUUGUAGUGAUGAUGGGGAGGUAGCCUUCUGGGAGUAUCACCAGCCUGCAGGUCUCUGAGCUA: 0.597
GAGAGGGAGUUGUGGGAAAUAAGAAGAAUGAAAGCCUCUCUUUCUGUCCGCAGAUCCUGACUUUUCCAAAGUGCCUUAAAAGAAAUCAGACAAAUGCCCUGAGUGGUAAC: 0.578
GCUGAUCAGAUCUCUCCAUAUCCUCUCUUGCCAGCUUUUUCCCGUGCUCCCCCAACUAUGUAUCAGAUAAGAUUCUUUGAUCCCGACUCUGUGUGUGCGAGCACGCGUGU: 0.782
AGGAGAGUGGUCUGUAAGCUCCAUCAGCCCUGUCCUGAGACAGCAGGGGGGAAGGACACUGGAGACUUUCUUGUGGGGCUUACUUAGCCUUCUGGUUACAGACUAUUUCC: 0.701
GUUACGUAAGAAGGGUCUUUGGUAGAAGAAAUUGCUCGUGUUUACACAGCUGUGGAUGCCAUGAAGAAGCCGUGGACAUUCUUGGUGGGUGAAGCCCUAGACGAUGGAAU: 0.849
GGCUCCCCCACUAGCUUUCAGGUGGGUAAGUUUUUUUGUUUGUUUUUUGGGGGUCUUUAGACUCUUGAAGGCAACUCAGGGUAUUGUCCACGCAGCUCUCUGGUUAGACU: 0.281
CACGGUAGGAACAUAGCGUGUUUAUAUUUUAUGGCCAAACUAUUUUGAAUUUUGUUGUCCGGCCCUCAGUGCCCUGCCCUCUCCCUUACCAGGACCACAGCUCUGUUCCU: 0.506

Series 4
Target: Prothrombin, mature alpha-thrombin (F2, Homo sapiens, UniProt P00734)
Technique: aptamer microarray, sandwich
Molecule type: DNA with 2'F-ANA
Sample: in vitro
Tested at: 200 nM
Notes: whole 15-mer aptamer, many near background
With: Cy3 exosite-II aptamer, 400 nM
Reading: higher = stronger binding
Quantity: mean fluorescence intensity
Oligonucleotide: GGTTGGTGTGGTTGG
2'F-ANA at 1 5 7 10 13 14: 74 a.u.
2'F-ANA at 4 6 12 13 14 15: 92.6 a.u.
2'F-ANA at 1 2 6 8 10 12 13 15: 79 a.u.
2'F-ANA at 2 6 7 9 11 12 13 14 15: 157 a.u.
2'F-ANA at 1 2 5 7 11 13 15: 55.4 a.u.
2'F-ANA at 1 5 8 9 10 11 12 13 14 15: 48.2 a.u.
2'F-ANA at 3 4 7 8: 859 a.u.
2'F-ANA at 2 3 7 15: 866 a.u.
2'F-ANA at 2 3 4 6 7 10 11 12 13 14: 153 a.u.
2'F-ANA at 7 8 11 12: 845 a.u.
2'F-ANA at 1 3 6 8 11 12 13 14 15: 114 a.u.
2'F-ANA at 1 4 5 6 7 8 9 12 13 14: 44.3 a.u.
2'F-ANA at 1 6 7 8 9 11 14: 58.2 a.u.
2'F-ANA at 1 6 7 8 9 11: 233 a.u.
2'F-ANA at 2 5 6 7 9 10 11 12 13 14: 48.6 a.u.
2'F-ANA at 1 2 4 5 6 9 10 11 15: 53.6 a.u.
2'F-ANA at 2 3 5 6 11 13: 92.7 a.u.
2'F-ANA at 3 4 5 6 9 12 14 15: 53.5 a.u.
2'F-ANA at 2 4 6 7 8 11 12 13 14 15: 108 a.u.
2'F-ANA at 3 6 8 9 11 12 13 14: 523 a.u.

For quick reference, copied from above (series 2):
TCAATATCCATTATAGAACTGTGCTAG: 0.608 z-score
GACGGACTGCTGCTCCTGACGTGCTAG: -0.878 z-score
ACCACTTTTATTTTCAGTATGTGCTAG: 0.841 z-score
TTAGATTTCAGTTCCGAGTAGTGCTAG: 1.14 z-score
TTAGATTTCGGTTATCGATTAGTGCTA: 2.74 z-score
TTAGATATCGGGTATCAATTAGTGCTA: 0.174 z-score
TTAGATATCAGACTGCATTAGTGCTAG: 0.106 z-score
